Earlier results as cited in several papers.
Numbered parts are unrelated; values within a part may stem from several laboratories. ± marks the error that the study gave.
Chain of UniProt P40763 (whole entry, looked up): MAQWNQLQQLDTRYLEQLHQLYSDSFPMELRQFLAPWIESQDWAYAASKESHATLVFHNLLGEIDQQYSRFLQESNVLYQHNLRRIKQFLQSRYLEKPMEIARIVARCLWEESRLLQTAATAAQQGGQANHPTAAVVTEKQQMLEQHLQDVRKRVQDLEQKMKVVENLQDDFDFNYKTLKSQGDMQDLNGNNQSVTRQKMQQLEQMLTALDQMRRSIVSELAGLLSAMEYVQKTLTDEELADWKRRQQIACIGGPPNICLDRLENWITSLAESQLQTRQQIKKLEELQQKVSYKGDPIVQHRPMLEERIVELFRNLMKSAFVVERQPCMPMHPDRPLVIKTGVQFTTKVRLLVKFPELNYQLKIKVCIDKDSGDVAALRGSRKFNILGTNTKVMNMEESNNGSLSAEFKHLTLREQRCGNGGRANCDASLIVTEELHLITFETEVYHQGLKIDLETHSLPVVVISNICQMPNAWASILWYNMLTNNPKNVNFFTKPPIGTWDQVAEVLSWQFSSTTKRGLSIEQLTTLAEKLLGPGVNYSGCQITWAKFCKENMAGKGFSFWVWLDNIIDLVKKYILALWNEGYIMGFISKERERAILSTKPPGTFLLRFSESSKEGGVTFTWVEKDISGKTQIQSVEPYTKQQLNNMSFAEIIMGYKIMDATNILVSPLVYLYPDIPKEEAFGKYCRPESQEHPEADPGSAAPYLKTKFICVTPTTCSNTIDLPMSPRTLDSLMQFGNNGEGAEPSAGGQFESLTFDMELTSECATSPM
Chain of UniProt O75469 (whole entry, looked up): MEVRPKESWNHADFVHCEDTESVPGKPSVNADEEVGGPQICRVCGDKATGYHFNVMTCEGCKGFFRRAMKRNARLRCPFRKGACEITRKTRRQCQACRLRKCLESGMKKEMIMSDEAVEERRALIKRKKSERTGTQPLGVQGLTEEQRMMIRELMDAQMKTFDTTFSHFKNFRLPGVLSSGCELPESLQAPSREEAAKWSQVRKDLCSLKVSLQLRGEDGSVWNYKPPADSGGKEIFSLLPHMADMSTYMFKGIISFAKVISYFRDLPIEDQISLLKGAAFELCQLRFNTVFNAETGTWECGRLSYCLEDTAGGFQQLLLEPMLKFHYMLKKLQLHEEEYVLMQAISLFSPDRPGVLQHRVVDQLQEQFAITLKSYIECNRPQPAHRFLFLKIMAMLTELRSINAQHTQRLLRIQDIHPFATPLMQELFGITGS
Chain of UniProt P9WPA5 (whole entry, looked up): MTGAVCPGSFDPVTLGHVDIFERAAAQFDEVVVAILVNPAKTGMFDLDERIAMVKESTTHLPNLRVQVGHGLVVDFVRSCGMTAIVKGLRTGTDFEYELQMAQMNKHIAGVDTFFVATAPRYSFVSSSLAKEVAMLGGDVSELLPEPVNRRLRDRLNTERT

Series 1
Target: HLA class I histocompatibility antigen, A alpha chain, allele A*26:03 (Homo sapiens, UniProt P04439)
Effect on: peptide-MHC binding
Form: peptide
Sequence	IC50
PTIPEQKCM	> 20 µM
RVFPGDHFY	> 20 µM
VQKVNPAPK	> 20 µM
FYLFTFTIY	> 20 µM
DTVLFNAGL	0.054 µM
NYFNRMFHF	> 20 µM
RMIESRMSK	> 20 µM
REWGWRIPF	> 20 µM
FRHSVVVPY	> 20 µM
QVGIFLICK	> 20 µM
TYSPALNKM	> 20 µM
KSLFNTVATLY	> 20 µM
RSLFNTIATLY	> 20 µM
ILQDRIRMY	> 20 µM
SYINRTGTF	> 20 µM
SYVFNFHKY	> 20 µM
RRSLLAHVR	> 20 µM
EIRHRSGIQ	> 20 µM
IHLDKGGQF	> 20 µM
CVFKFIVAK	> 20 µM
SFSFGGFTF	> 20 µM
ETRYSWAIL	0.454 µM
VELQIGWTV	> 20 µM
YECTSRHFT	> 20 µM
LEYGANYFL	> 20 µM

Single results of other studies
Ahr: Aryl hydrocarbon receptor (Ahr, Rattus norvegicus, UniProt P41738)
Chain of UniProt P41738 (whole entry, looked up): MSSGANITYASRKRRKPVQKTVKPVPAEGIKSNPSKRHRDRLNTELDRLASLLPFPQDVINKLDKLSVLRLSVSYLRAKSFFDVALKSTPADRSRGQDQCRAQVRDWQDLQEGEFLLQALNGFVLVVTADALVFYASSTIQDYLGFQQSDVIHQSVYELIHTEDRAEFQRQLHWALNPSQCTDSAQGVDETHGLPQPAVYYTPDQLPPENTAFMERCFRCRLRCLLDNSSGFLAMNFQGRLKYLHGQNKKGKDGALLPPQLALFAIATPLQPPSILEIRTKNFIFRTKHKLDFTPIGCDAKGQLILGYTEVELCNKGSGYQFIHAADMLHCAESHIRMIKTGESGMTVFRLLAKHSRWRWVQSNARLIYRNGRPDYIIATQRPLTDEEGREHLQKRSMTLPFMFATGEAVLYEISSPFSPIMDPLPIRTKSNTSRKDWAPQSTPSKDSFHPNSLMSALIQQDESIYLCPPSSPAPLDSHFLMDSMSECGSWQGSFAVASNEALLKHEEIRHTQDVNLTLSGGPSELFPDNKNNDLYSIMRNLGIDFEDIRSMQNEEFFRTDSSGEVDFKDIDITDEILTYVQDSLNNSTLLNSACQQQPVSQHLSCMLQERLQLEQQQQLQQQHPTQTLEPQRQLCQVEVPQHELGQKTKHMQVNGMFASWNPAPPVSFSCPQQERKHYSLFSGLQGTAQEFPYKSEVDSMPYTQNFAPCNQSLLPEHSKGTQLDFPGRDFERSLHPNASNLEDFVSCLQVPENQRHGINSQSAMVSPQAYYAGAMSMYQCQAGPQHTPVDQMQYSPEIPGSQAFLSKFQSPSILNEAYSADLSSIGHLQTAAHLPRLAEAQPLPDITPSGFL
SMILES	target or system	assay	test system	setting	scale	quantity	value
O=C(CS)Nc1ccc(Cl)c(Cl)c1	A549					IC50	> 100 µM
O=C(O)c1cc(-c2ccc(C34CCN(CC3)CC4)cc2)c2ccc(-c3ccc(C(F)(F)F)cc3)cc2c1	HepG2	cytotoxicity				IC50	21.6 µM
O=C(Cc1cccs1)N[C@@H]1C(=O)N2C(C(=O)O)=C(/C=C/c3ccc([N+](=O)[O-])cc3[N+](=O)[O-])CS[C@H]12	NDM-1 wild type	hydrolysis, substrate				Km	1.3 ± 0.2 µM
C[S+]([O-])CCCCN=C=S (stereo not drawn)	NR1I2 (Homo sapiens, UniProt O75469)					IC50	16 µM
CCCSc1ccc2nc(NC(=O)OC)[nH]c2c1	Trichuris muris		adult worms			IC50	200 µg/mL
CC[n+]1c(-c2ccccc2)c2cc(N)ccc2c2ccc(N)cc21	calf thymus DNA	ethidium bromide displacement				DNA binding constant	1.2e+06 M⁻¹
Oc1cccc(-c2ccc(Cl)cc2)c1			rat liver	1 µM		glucuronidation rate	100 pmol/min/mg protein
Cc1ccc2c(c1)C(=O)C1(O)CCN(c3ccccc3)C1=N2 (stereo not drawn)	adenocarcinoma cells	cell motility				EC50	~50 µM
CC(C)=CCCC1=CC(=O)c2c(O)ccc(O)c2C1=O	Chitinase (OfChi-h, Ostrinia furnacalis, UniProt Q4AE59)					Ki	5.5 µM
CCCC(C(=O)c1ccc2c(c1)OCO2)N1CCCC1.Cl (racemic)			male Sprague-Dawley rat, brain over plasma	sc, 1 mg/kg		Kp	~4
Cc1cccc2c1ccc1cc(C(C)C)ccc12			pooled human liver microsomes	0.25 µM		metabolism rate	10.7 pmol/min/mg
Oc1ccc(-c2c(Cl)c(Cl)cc(Cl)c2Cl)cc1Cl			rat liver	1 µM		sulfonation rate	11 pmol/min/mg protein
CC(NC(C)(C)C)C(=O)c1cccc(Cl)c1 (stereo not drawn)	nicotinic receptor α4β2					IC50	17.8 µM
COc1ccc(C(=O)c2c(C)n(CCN3CCOCC3)c3cc(I)ccc23)cc1	cannabinoid receptor CB2	binding				Ki	0.031 to 0.093 µM
c1ccc2ccccc2c1		measured: two major metabolites summed	human liver microsomes	2.5 µM		metabolite formation rate	0.345 nmol/mg/min
C[C@H](c1ccccc1)n1cncc1C(=O)OCCC(=O)O			rat	MOC-etomidate infusion, 60 min after 30 min infusion		blood concentration	820 ± 42 µM
CC(=O)N1CC[C@H]2CC[C@@H](C(=O)N[C@@H](CCC(N)=O)C(=O)NC(c3ccccc3)c3ccccc3)N2C(=O)[C@@H](NC(=O)c2cc3cc(C(F)(F)P(=O)(O)O)ccc3[nH]2)C1	STAT3 (Homo sapiens, UniProt P40763)	binding				Ki	0.014 µM
c1ccc2c(c1)Cc1c-2ccc2ccccc12	Ahr			50% effect level	baseline: benzo[a]pyrene	relative potency	1.2
COc1ccc(C[C@@H](C)[C@@H](C)Cc2ccc(OC)c(OC)c2)cc1OC			human, recurrent high-grade glioma	intravenous, dose not given		median overall survival	5.9 months
CC1(C)NC(=O)C(Cc2ccc(O)cc2)NC(=O)CNC(=O)C(Cc2ccc3ccccc3c2)NC(=O)C(CCCN=C(N)N)NC1=O (stereo not drawn)	CXCR4 wild type					EC50	2.9 µM
Cn1c(CCCC(=O)O)nc2cc(N(CCCl)CCCl)ccc21	DNA/RNA synthesis	DNA damage		cell-free		IC50	50 µM
Nc1ncnc2c1ncn2[C@@H]1O[C@H](COP(=O)(O)OP(=O)(O)OP(=O)(O)O)[C@@H](O)[C@H]1O	Phosphopantetheine adenylyltransferase (coaD, Mycobacterium tuberculosis, UniProt P9WPA5)	substrate				Km	116 ± 5 µM
NC1CCCCC1N.O=C([O-])C(=O)[O-].[Pt+2] (stereo not drawn)		measured: total platinum	mouse, plasma	intraperitoneal, 5 mg Pt/kg		clearance	3.59 mL/min/kg
C=CC1O[C@H]2C[C@H]3OC[C@@]3(OC(C)=O)[C@H]3[C@H](OC(=O)c4ccccc4)[C@]4(O)C[C@H](OC(=O)[C@H](O)[C@H](CC(C)C)NC(=O)OC(C)(C)C)C(C)=C([C@H](OC(C)=O)[C@H](O1)[C@]23C)C4(C)C (stereo partly drawn)			human PSP or CBD patients	dose not given, drug still detectable in plasma		cerebrospinal fluid level	not detected
CO[C@H]1C[C@@H]2CC[C@@H](C)[C@@](O)(O2)C(=O)C(=O)N2CCCC[C@H]2C(=O)O[C@H]([C@H](C)C[C@@H]2CC[C@@H](OC(=O)NCCOCCOCCOCCOCCOCCOCCOCCOCCC(=O)N3CCc4cc(Cn5nc(-c6ccc7oc(N)nc7c6)c6c(N)ncnc65)ccc4C3)[C@H](OC)C2)C[C@@H](O)[C@H](C)/C=C(\C)[C@@H](O)[C@@H](OC)C(=O)[C@H](C)C[C@H](C)/C=C/C=C/C=C/1C	mTORC1 and mTORC2	cell-based			baseline: mTORC1 over mTORC2	selectivity ratio	~40 fold
c1ccc2cc3cc4ccccc4cc3cc2c1	Ahr			50% effect level	baseline: benzo[a]pyrene	relative potency	11
